# Measured values pooled from the literature.
# Protocols differ between the studies behind these lines. Several values in a cell are separate wells, animals, samples, runs or records. Numbers after ± are the reported error.
# TOP2A: DNA topoisomerase 2-alpha (TOP2A, Homo sapiens, UniProt P11388)
# DNMT1: DNA (cytosine-5)-methyltransferase 1 (DNMT1, Homo sapiens, UniProt P26358)
# AKR1B1: Aldo-keto reductase family 1 member B1 (AKR1B1, Homo sapiens, UniProt P15121)
SMILES,tested on,test,test system,setting,how to read,measurement,result
O=c1nc(SCc2cc(F)cc(C(F)(F)F)c2)nc(SCc2ccc3sccc3c2)[nH]1,TOP2A,decatenation,,"7.8 µM, replicate 1",,decatenated DNA,100%
O=C(O)C1=CC(=C(c2ccc(O)c(C(=O)O)c2)c2ccc(O)c(C(=O)O)c2)C=CC1=O,"P2X purinoceptor 4 (P2RX4, Homo sapiens, UniProt Q99571)",patch clamp,,"400 nM, unit not given",relative to: baseline,remaining current,0.993 ± 0.049
CCC1(O)CCCN(C(=O)c2ccc(-c3ccc(F)c(NC(=O)CCl)c3)cc2)C1 (centres unmarked),"DNA dC->dU-editing enzyme APOBEC-3B, C-terminal domain (Homo sapiens, UniProt Q9UH17)","covalent modifier, intact protein mass spectrometry, refers to: adduct +26487 Da",,"500 µM, 3 h, 20-fold molar excess",,protein adduct,10%
COc1cc2c(cc1OC)[C@H]1C[C@@H](O)[C@H](CC(C)C)CN1CC2,"MFS-type transporter SLC18B1 (SLC18B1, Homo sapiens, UniProt Q6NT16, F251A)",binder,,radiolabeled protein variants,,Kd,204 µM
N[C@H](CCSSCC[C@@H](N)C(=O)O)C(=O)O (racemic),,"binding, MIDAS equilibrium dialysis LC-MS",A2AR-BRIL thermostabilized,concentration not given,relative to: no-protein control,log2 fold change,-0.0856
CCCCC[C@H](O)/C=C/[C@H]1[C@H](O)CC(=O)[C@@H]1C/C=C\CCCC(=O)O,"PTGER1 (Homo sapiens, UniProt P34995, S42A)","IP1 accumulation, agonist",AD293,"1 h, EP1 S42A mutant",,Emax,93.3 ± 5.16%
CC(C)C[C@H](N)C(=O)O,"snf (Aquifex aeolicus, UniProt O67854)",scintillation proximity,,"10 nM LeuT, together with: clomipramine 1 mM",,Bmax,5660 ± 197 cpm/pmol LeuT
CCc1cnn2c(NCc3ccc[n+]([O-])c3)cc(N3CCCC[C@H]3CCO)nc12,"BRD4 (Homo sapiens, UniProt O60885)","19F NMR, refers to: tyrosine 118",,186 µM,relative to: free protein,chemical shift change,-0.036 ppm
CCOc1nc2nc(C)cc(Nc3ccc(C(F)(F)F)cc3)n2n1,"Dihydroorotate dehydrogenase (quinone) (pyrD, Acinetobacter baumannii, UniProt B7GZW7)","enzyme activity, inhibitor, colorimetric HTS, refers to: DCIP reduction",,3 µM,direction not given,robust Z-score,20
Nc1nc(=O)n([C@H]2C[C@H](O)[C@@H](CO)O2)cc1CCCNC[C@H]1O[C@@H](n2cnc3c(N)ncnc32)[C@H](O)[C@@H]1O,DNMT1,radiometric [3H]-SAM,,"concentration not given, together with: SAM, poly(dI-dC)",,inhibition type,inhibited
Nc1ncnc2c1ncn2[C@@H]1O[C@H](COP(=O)(O)CP(=O)(O)OP(=O)(O)O)[C@@H](O)[C@H]1O,"P2X purinoceptor 1 (P2RX1, Homo sapiens, UniProt P51575, E282A)",calcium influx,,3.16 nM,relative to: ionomycin response,calcium influx,2.28% and 0%
NCCCS(=O)(=O)O,"SLC6A6 (Homo sapiens, UniProt P31641, Y138A)","binding, microscale thermophoresis",,"43.2 nM, fitted curve",higher = more binding,fraction bound,0.000391
CC(C)(COP(=O)(O)OP(=O)(O)OC[C@H]1O[C@@H](n2cnc3c(N)ncnc32)[C@H](O)[C@@H]1O)[C@@H](O)C(=O)NCCC(=O)NCCS,,"binding, MIDAS equilibrium dialysis LC-MS",A2AR-BRIL thermostabilized,concentration not given,relative to: no-protein control,log2 fold change,-0.916
N[C@@H](Cc1ccc(O)cc1)C(=O)Nc1ccc2ccccc2c1,rat aminopeptidase III,substrate,,MW 110 kDa,,kcat,3.43 s⁻¹
N#Cc1ccc2c(-c3ccncc3)c(-c3ccc(F)cc3)nn2c1,"Cyclin-dependent kinase 1 (CDC28, Candida albicans, UniProt P43063)","kinase binding, competitor, MIB/MS competition, refers to: CDC28",Candida albicans cell lysate,10 µM,relative to: DMSO,log2 fold change,0.213
CC[C@H](C)[C@@H]1NC(=O)[C@H](C)NC(=O)[C@H]([C@@H](C)CC)NC(=O)[C@H](CCC(N)=O)NC(=O)[C@H](C)NC(=O)[C@H](CCCNC(=N)N)NC(=O)[C@H](C(C)C)NC(=O)[C@H](CC(C)C)NC(=O)[C@H](CCC(=O)O)NC(=O)[C@H](CCCNC(=N)N)NC(=O)CNC(=O)[C@@H](NC(=O)[C@H](CC(C)C)NC(=O)[C@H](CCCCN)NC(=O)[C@@H](NC(=O)[C@@H](NC(=O)[C@H](CCC(=O)O)NC(=O)[C@H](CCC(=O)O)NC(=O)[C@H](CCSC)NC(=O)[C@H](Cc2c[nH]c3ccccc23)NC(=O)[C@H](CO)NC(=O)[C@@H](N)CC(=O)O)C(C)C)[C@@H](C)CC)CSSC[C@@H]2NC(=O)[C@@H](NC(=O)[C@H](CCCCN)NC(=O)[C@H](CC(N)=O)NC(=O)[C@H](C)NC(=O)[C@H](CC(C)C)NC(=O)[C@H](C)NC(=O)[C@H](CO)NC(=O)[C@H](Cc3ccc(O)cc3)NC(=O)[C@H](CC(C)C)NC(=O)[C@H](CCC(N)=O)NC(=O)c3ccc(-c4c5ccc(=[N+](C)C)cc-5oc5cc(N(C)C)ccc45)c(C(=O)[O-])c3)CSSC[C@H](NC(=O)CNC(=O)[C@H](C(C)C)NC(=O)[C@H](Cc3c[nH]cn3)NC2=O)C(=O)N[C@@H]([C@@H](C)O)C(=O)N[C@@H](CCCCN)C(=O)N[C@@H](CCCNC(=N)N)C(=O)N[C@@H](CO)C(=O)N[C@@H](CC(C)C)C(=O)N[C@@H](C)C(=O)N[C@@H](CCCNC(=N)N)C(=O)N[C@@H](Cc2ccccc2)C(=O)N[C@H](C(=O)O)CSSC[C@@H](C(=O)NCC(=O)N[C@@H](CCSC)C(=O)N[C@@H](CO)C(=O)N[C@H](C(=O)N[C@@H](Cc2c[nH]c3ccccc23)C(=O)N[C@@H](CO)C(=O)O)[C@@H](C)O)NC1=O,"Relaxin receptor 1 (RXFP1, Homo sapiens, UniProt Q9HBX9, F76A/Y80A)",NanoBRET dissociation,,"infinite dilution, together with: 100 nM relaxin",,koff fast phase,0.00685 s⁻¹
Cn1c[n+]([C@@H]2O[C@H](COP(=O)(O)OP(=O)([O-])OP(=O)(O)OC[C@H]3O[C@@H](n4cnc5c(=O)[nH]c(N)nc54)[C@H](O)[C@@H]3O)[C@@H](O)[C@H]2O)c2nc(N)[nH]c(=O)c21,"DCPS (Homo sapiens, UniProt Q96C86)","substrate, HPLC",,"concentration not given, 30 min",,hydrolysis,95.1 ± 3%
Nc1nc2c(ncn2[C@@H]2O[C@H](COP(=O)(O)O)[C@@H](O)[C@H]2O)c(=O)[nH]1,"GUK1 (Homo sapiens, UniProt Q16774, S37A)","enzyme activity, NADH-coupled",,7.812 µM,,reaction rate,0.342 s⁻¹ and -2.9 s⁻¹ and -0.763 s⁻¹
Cn1cc(-c2ccc(-c3cncc(Cl)c3N3CCC4(CCNC4=O)CC3)cc2)cn1,COLO 205,"gene expression, microarray, refers to: S100A10 mRNA",,"concentration not given, 6 h",relative to: untreated cells,log2 fold change,6.11
C=CC(=O)N1CCC(COCC(=O)N2CCN(c3nc(-c4cnc(N)nc4C(F)F)nc(N4CCOC[C@@H]4C)n3)CC2)CC1,"TYRO3 (Homo sapiens, UniProt Q06418)",KINOMEscan,,1 µM,,remaining binding,100%
COc1ccc(/C=C2\SC(=O)N(CC(=O)c3ccc([N+](=O)[O-])cc3)C2=O)cc1,AKR1B1,"enzyme activity, inhibitor",,,,log IC50,2.46 log nM
Nc1c(Br)cc(Br)cc1CN[C@H]1CC[C@H](O)CC1,"SCN2A (Homo sapiens, UniProt Q99250)",ion current,,"3 µM, 0.08333 h",,activation,29.3%
O=c1nc(SCc2cc(F)cc(C(F)(F)F)c2)nc(SCc2ccc3nc(OCCN4CCOCC4)ccc3c2)[nH]1,TOP2A,decatenation,,"125 µM, replicate 2",,decatenated DNA,0%
O=C(COP(=O)(O)O)[C@@H](O)[C@H](O)[C@H](O)COP(=O)(O)O,"DNAJA1 (Homo sapiens, UniProt P31689)",thermal proteome profiling,HepG2 cell lysate,"concentration not given, 57 over 37 °C",relative to: compound over control,thermal stability ratio,0.833 and 0.682 and 0.472
NC/C(=C\F)COc1cccc(Cn2c(=S)[nH]c(=O)c3[nH]cnc32)c1,"CACNA1C (Homo sapiens, UniProt Q13936)","peak ramp current, inhibitor, patch clamp",human cells,"30 µM, pulse 10",,inhibition,17.4% and 16.8% and 8.2%
O=S(=O)(O)C1CCNCC1,"SLC6A6 (Homo sapiens, UniProt P31641, G62A)","binding, microscale thermophoresis",,"125 µM, room temperature, together with: 50 nM labelled protein",higher = more binding,normalised MST signal,-0.0218
CCc1c(C#N)c(NCC(N)=O)nc(SC(C(N)=O)c2ccccc2)c1C#N (centres unmarked),DNMT1,"degrader, Western blot",HCT-116,"1 µM, 24 h",relative to: DMSO,Dmax,< 50%
O=C(COc1cc(Cl)ccc1Cl)Nc1cc(C2CC2)nn1CC(F)(F)F,"Kir3.1/Kir3.4 (Homo sapiens, UniProt P48544+P48549)","thallium flux, activator",HEK293,,relative to: standard compound,Emax,25%
CC1=NN(c2ccccc2)C(=O)C1=NNc1ccc(S(N)(=O)=O)cc1,bovine α-glucosidase,"enzyme activity, inhibitor, glucose oxidase",,"500 µg/mL, together with: maltose",,inhibition,50.1%
C=C1CN(S(=O)(=O)c2ccc(C)cc2)CCCN(Cc2ccccc2)CCCN(S(=O)(=O)c2ccc(C)cc2)C1,"Protein transport protein Sec61 subunit alpha isoform 1 (Homo sapiens, UniProt P61619)",refers to: control signal peptide-FLuc reporter,HEK293,"0.12 mM, 6 h",,FLuc/RLuc ratio,1.13
CC1=NN(c2ccc(F)cc2)C(=O)C1=NNc1ccc(S(N)(=O)=O)cc1,bovine α-glucosidase,"enzyme activity, inhibitor, glucose oxidase",,"10 µg/mL, together with: maltose",,inhibition,32.3 ± 0.00178%
O=C(CN1C(=O)S/C(=C\c2ccc(F)cc2)C1=O)c1ccc([N+](=O)[O-])cc1,AKR1B1,"enzyme activity, inhibitor",,,,Hill slope,-0.598

# Repeated from above:
SMILES,tested on,test,test system,setting,how to read,measurement,result
N[C@@H](Cc1ccc(O)cc1)C(=O)Nc1ccc2ccccc2c1,rat aminopeptidase III,substrate,,MW 110 kDa,,kcat,3.43 s⁻¹
N#Cc1ccc2c(-c3ccncc3)c(-c3ccc(F)cc3)nn2c1,"Cyclin-dependent kinase 1 (CDC28, Candida albicans, UniProt P43063)","kinase binding, competitor, MIB/MS competition, refers to: CDC28",Candida albicans cell lysate,10 µM,relative to: DMSO,log2 fold change,0.213
